{"data": "Results collected from several papers", "note": "Protocols differ between the studies behind these lines. Numbers after ± are the reported error."}
{"SMILES": "CC[C@H](CO)N(CCN(N=O)[C@H](CC)CO)N=O", "tested on": "Salmonella typhimurium", "test": "plate incorporation", "system": "TA1535, water", "conditions": "500 µg/plate, without S9 test 2", "endpoint": "revertant colonies per plate", "value": "18.3 ± 7"}
{"SMILES": "O=C(Nc1nc2cccc(-c3ccc(CN4CCS(=O)(=O)CC4)cc3)n2n1)C1CC1", "test": "item: musculoskeletal disorders", "system": "human rheumatoid arthritis patients", "conditions": "oral, 150 mg once daily, 4 weeks, regardless of relatedness", "endpoint": "treatment-emergent adverse events", "value": "0%"}
{"SMILES": "CC(C)C(=O)C(=O)[O-].[Na+]", "tested on": "HCT-8", "test": "Hoechst nuclei count", "conditions": "1 mM, 24 h", "scale": "relative to: PBS", "endpoint": "host cell number", "value": "0.965 ± 0.08"}
{"SMILES": "Cc1cc(Nc2ccc(S(F)(F)(F)(F)F)cc2)n2nc(C(C)(F)F)nc2n1", "tested on": "Plasmodium vivax", "test": "12-lead Holter ECG", "system": "human malaria patients", "conditions": "oral, 800 mg, QTc above 450 ms", "endpoint": "patients with QTcF above threshold", "value": "33.3%"}
{"SMILES": "COc1cc(CNc2ccc(C(=O)O)cc2)ccc1O", "tested on": "HGF", "test": "cell viability, resazurin", "conditions": "72 h, 10% FBS", "endpoint": "IC50", "value": "> 100 µM"}
{"SMILES": "Cc1cc(N)c2c(OCC(C)(C)C(=O)NC(C)C)cccc2n1", "tested on": "Salmonella typhimurium", "test": "reverse mutation, plate incorporation", "system": "TA98", "conditions": "1 µg/plate, with rat liver S9", "endpoint": "mean revertant colonies", "value": "24 colonies/plate"}
{"SMILES": "N#Cc1ccc2c(c1)[C@H]1CCCN(C(=O)c3ccc4[nH]cnc4c3)[C@H]1C2", "system": "human", "conditions": "80 mg, end of trial", "endpoint": "mean ACTH level", "value": "6.6 pmol/L"}
{"SMILES": "O=C(O)CCCC(=O)O", "tested on": "HCT-8", "test": "Hoechst nuclei count", "conditions": "1 mM, 24 h", "scale": "relative to: PBS", "endpoint": "host cell number", "value": "0.982 ± 0.043"}
{"SMILES": "Cc1ccc(CNC(=O)Cn2cc(CSc3nc4ccccc4[nH]3)nn2)cc1", "tested on": "HEK293", "test": "MTT", "conditions": "125 ppm", "endpoint": "viability", "value": "11%"}
{"SMILES": "COc1cc2[nH]c(C)c(-c3cccnc3)c(=O)c2cc1Cl", "conditions": "pH 7.4", "endpoint": "kinetic solubility", "value": "≥ 20 µM"}
{"SMILES": "C/C(O)=C(\\C#N)C(=O)Nc1ccc(C(F)(F)F)cc1", "tested on": "Jurkat", "system": "culture medium", "conditions": "1 µM, 48 h", "endpoint": "free drug concentration", "value": "260 nM"}
{"SMILES": "Cc1cc(C(=O)NC(C)(C)COc2cccc3c2C(N)=NS(=O)(=O)N3)cc(C)n1", "tested on": "human peripheral blood lymphocytes", "test": "CBPI, preliminary test", "conditions": "60 µg/mL, 24 h", "scale": "relative to: vehicle control", "endpoint": "cytotoxicity", "value": "6%"}
{"note": "Some of these lines once more:"}
{"SMILES": "O=C(Nc1nc2cccc(-c3ccc(CN4CCS(=O)(=O)CC4)cc3)n2n1)C1CC1", "test": "item: musculoskeletal disorders", "system": "human rheumatoid arthritis patients", "conditions": "oral, 150 mg once daily, 4 weeks, regardless of relatedness", "endpoint": "treatment-emergent adverse events", "value": "0%"}
